Published values from different studies.
Numbered parts are unrelated; each lists some results of a single study. Substitutions count along the parent as printed.

Set 1
Target: CCNA2, cyclin fold, Cln2 fusion (human)
Technique: yeast growth competition, sequencing
Matrix: yeast
Notes: strong parent motif
Baseline: not given
Direction: higher = stronger binding
Parent: MICAL3 docking peptide (human); LQLRRQLSFSEDS
| Variant | normalised enrichment score |
| --- | --- |
| LQLRRSLSFSEDS [Q6S] | 2 |
| LQLPRQLSFSEDS [R4P] | 1.31 |
| LQLRRQLSQSEDS [F9Q] | 0.112 |
| LQLRRQLSFDEDS [S10D] | 2.9 |
| LQLRLQLSFSEDS [R5L] | 0.234 |
| LQLRRQMSFSEDS [L7M] | 0.386 |
| LQLRRELSFSEDS [Q6E] | 1.72 |
| LQLRSQLSFSEDS [R5S] | -0.0847 |
| LQLRRQLSFSEPS [D12P] | 3.6 |
| LQLRVQLSFSEDS [R5V] | 0.349 |
| LQLRRQLSFLEDS [S10L] | 2.1 |
| LQLRRYLSFSEDS [Q6Y] | 1.66 |
| LQMRRQLSFSEDS [L3M] | 2.79 |
| LQLRRQLSFREDS [S10R] | 2.61 |
| LQLRRQLSFSEMS [D12M] | 3.67 |
| LQLRRQLSFSSDS [E11S] | 3.45 |
| LQLRRQLSFGEDS [S10G] | 3.76 |
| LQLRRQKSFSEDS [L7K] | -0.00816 |
| LGLRRQLSFSEDS [Q2G] | 3.62 |
| LQLRRQLSFTEDS [S10T] | 3.15 |
| LQLRRQTSFSEDS [L7T] | -0.21 |

Set 2
Target: Interferon regulatory factor 7, full length, phosphomimetic (IRF7, Homo sapiens, UniProt Q92985, residues 1-503, S101K/S471D/S472D/S475D/S476D/S477D/S483D/S484D/S487D)
Technique: protein-binding microarray
Molecule type: double-stranded DNA, one strand shown
Matrix: in vitro
Tested at: 250 nM
Notes: 60-bp whole probe
Added: salmon DNA 0.4 mg/ml
Baseline: random background probes
Direction: higher = stronger binding
Shared flanks, not repeated: GCCTAGCAC … GTCTTGATTCGCTTGACGCTGCTG
Construct (chain): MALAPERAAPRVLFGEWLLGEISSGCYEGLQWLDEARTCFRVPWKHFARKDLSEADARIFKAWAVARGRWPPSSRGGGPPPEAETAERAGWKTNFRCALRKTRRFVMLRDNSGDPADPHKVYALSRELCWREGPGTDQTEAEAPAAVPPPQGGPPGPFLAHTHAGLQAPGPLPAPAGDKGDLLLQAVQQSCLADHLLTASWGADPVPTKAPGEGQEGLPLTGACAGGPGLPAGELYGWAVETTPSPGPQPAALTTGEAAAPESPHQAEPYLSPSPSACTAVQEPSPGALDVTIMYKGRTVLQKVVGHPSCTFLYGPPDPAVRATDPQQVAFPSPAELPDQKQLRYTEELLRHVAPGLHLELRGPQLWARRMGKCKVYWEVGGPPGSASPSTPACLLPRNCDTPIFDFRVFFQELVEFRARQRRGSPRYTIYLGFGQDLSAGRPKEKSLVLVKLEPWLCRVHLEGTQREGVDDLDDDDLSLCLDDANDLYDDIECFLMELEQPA
| Sequence | log fluorescence [z-score] |
| --- | --- |
| GACGGTATAGGACTGGGGACGTGCTAG | -0.567 |
| TTAGGACTGGTGACTGGGTTAGTGCTA | -0.88 |
| TCAGGACTGCTTTTCCTTTAGTGCTAG | 0.753 |
| GACGATTTCAGTATCGAAACGTGCTAG | 0.959 |
| GACGAACTGAGTCTCGAGAAGTGCTAG | 0.161 |
| CTTTACATGAGTTTAGAGCCGTGCTAG | 0.134 |
| GACGGCATCCTACTGCTGACGTGCTAG | -0.618 |
| TTAGATATCAGTATTGATTAGTGCTAG | 0.0214 |
| GACGATATTAGACTGGAGACGTGCTAG | -0.232 |
| GACGATATCGCGACTGGAGACGTGCTA | -0.216 |
| CTAGAACTGGGGACTGGATTAGTGCTA | -0.222 |
| TTAGAATTGGGGTATCGATTAGTGCTA | 0.232 |
| GACAAACTGGGGTTTCGAGACGTGCTA | 2.5 |
| GACGGTCTCGGTCTCTGGACGTGCTAG | 0.995 |
| TGGCCTATTTATATGAGATGGTGCTAG | 0.573 |
| GACGGTATCGTGACTGGGGACGTGCTA | -0.333 |
| GACGGTTTCCTGATCCTGACGTGCTAG | 1.3 |

Set 3
Target: RNA binding protein fox-1 homolog 2, RRM domain, GST-SBP tag (RBFOX2, Homo sapiens, UniProt O43251-10, residues 100-194)
Technique: RNA Bind-n-Seq
Molecule type: RNA
Matrix: in vitro
Tested at: 365 nM
Notes: natural RNA segment, single round, ends assumed
Baseline: no-protein control
Direction: higher = stronger binding
Shared flanks, not repeated: GGGAGUUCUACAGUCCGACGAUC … UGGAAUUCUCGGGUGCCAA
Construct (chain): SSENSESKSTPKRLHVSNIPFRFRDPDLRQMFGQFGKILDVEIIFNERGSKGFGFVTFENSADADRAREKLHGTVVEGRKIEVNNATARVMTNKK
| Sequence | RBNS enrichment (R) |
| --- | --- |
| CCAUCAGCAGCUUGACGCGUGGUCACAGGACGAUUUCACUGACACUGCGAACUCUCAGGACUACCGUUACCAAGAGGUUAGGUGAAGUGGUUUAAACCAAACGGAACUCU | 0.449 |
| AGAGAACUCAAACAGCCCUUUAAAGGAGCUCUCGGCAACCAACACUGCCACUCUAUGAGAAAACCCUCUGCCCUUUACUGCUGCUGGCUUGCCGUCUGGGAUGCUCAGUA | 0.327 |
| GAUUAAAGAGGCAGGCGUCACCACACCUGAUAAAUAUUUUCUUCAAGGGAACCAGAGUUUGGUUCUUUAUGCAAAUUUUUUCCCAAUGAAAUAAAACAUAGUUAACUGUG | 0.333 |
| UGAUGUGUCUGUAUAUCAAUCUGUAUCUACAUUUGAUGGACUGAGUAAGAAUGUUGCAUGUGAGAGAAGGGAUGUGACUGUGGACUCAGAUUGACACACACAGAUUGGUG | 6.13 |
| CCGGCUGUGGAGCUCCCCUGCCAGCCCCUGGAGCUCCAGGAGGGCCUGUUGGUCCCCUGUUCAGAAUGGAGUGCAGCCCGCCAGCGGAAAGUGUUCAUUCUGCAUAGGUG | 0.134 |
| AAGAAAAGGUUUUUCACACACUCCUUGCUUUCUGCUAAGAUAAGAAAGGCGUCACUCUGCCAGAGUGUGACUUUUUACAGAUUAAAUAAAGCUGUAUAUGUCUCAUUGUU | 0.242 |
| GUCUGGGCUGGGGCAGGGAUUGCUCAGUGGAAGCAGGACUGGGGGUCUGGCUUGCCCCCUCCCUGGGCCUCCAUCACCCCUGAGCAUCCCUCUGGACUCAGAGGGAACAA | 0.492 |
| UCUGACUGGAAGAAUUUAGGACCACUGCAUCCUGUCUUAAUCCAAGGUACUGGAAAACCUUCCACAUGCCCAACCUGAGACCUGUUCCCCAUCGCUACCAUUUGGCCAAA | 0.831 |
| CCUGUGUGGCGCCGUCCAUCUGGCCACUGCAGUCCAACCUCCACAAGAGAGAAGAACUAAAGAAGUUCUUUUUAUUCCUCGUUACCAAAUAAAUCAUUUCUCUCUUUACC | 0.549 |
| UGUCCCAUUAAGAUUUGGGCACAGAUAAGACAUCUUCCACUUUCCAUCCUUCCUACAGUUAGAGCCCCAGUAGUGCGAGAAGGCCCCAUAUAUGGCAGCAUUCAGCUCUC | 0.358 |
| GGCCCUCCUUCCUGAAGACAGUCAGCCUGGGGCUCUUACCCUGAGACAAUGAGGGCCGCAUGAAGAUCUGGUGCUGCGCGGAUGCUGCCCUGGUGAUGCUGUGUGCUGGG | 6.64 |
| ACCACUGUACUCCAGCCUGGGCGACAGAGCAAGACUCUGUCUCAAAAAAAGGAAAAAAAAAAAAAGUAAUCUUAGGGUUCAUAGUUAUGAUCCUGUUGUAACUAUCUUCG | 0.32 |

Set 4
Target: ABI1, truncated, D143A, DHFR fusion (Arabidopsis thaliana)
Technique: DHFR PCA, deep sequencing
Matrix: yeast
Notes: methotrexate growth selection, single substitutions
Added: (+)-ABA 200 µM
Baseline: wild-type fitted maximum
Direction: higher = stronger binding
Parent: PYL1, truncated, DHFR fusion (Arabidopsis thaliana); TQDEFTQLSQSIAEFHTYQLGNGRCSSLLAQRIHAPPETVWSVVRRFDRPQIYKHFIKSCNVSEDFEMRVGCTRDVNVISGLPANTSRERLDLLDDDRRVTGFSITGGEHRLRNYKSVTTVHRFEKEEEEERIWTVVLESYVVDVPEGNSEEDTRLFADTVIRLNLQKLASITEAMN
| Variant | relative binding score [%] |
| --- | --- |
| T106L | 104 |
| P50G | 4.22 |
| N22C | 95.1 |
| E125G | 104 |
| E128K | 113 |
| V118F | 76.7 |
| A84E | 21.6 |
| T120P | 4.18 |
| T1G | 95.1 |
| I105K | 2.28 |
| A35T | 76 |
| A30D | 77.9 |
| N114G | 96.8 |
| V142E | 94.7 |
| R98V | 94.8 |

Set 5
Target: RING finger protein unkempt homolog, zinc fingers 1-6, GST-SBP tag (UNK, Homo sapiens, UniProt Q9C0B0, residues 30-357)
Technique: RNA Bind-n-Seq
Molecule type: RNA
Matrix: in vitro
Tested at: not given
Notes: RNA with constant flanks, ends assumed
Baseline: input RNA pool
Direction: higher = stronger binding
Shared flanks, not repeated: GGGAGUUCUACAGUCCGACGAUC … CAACAGAGGAUUGAGCAUCA
Residues (chain): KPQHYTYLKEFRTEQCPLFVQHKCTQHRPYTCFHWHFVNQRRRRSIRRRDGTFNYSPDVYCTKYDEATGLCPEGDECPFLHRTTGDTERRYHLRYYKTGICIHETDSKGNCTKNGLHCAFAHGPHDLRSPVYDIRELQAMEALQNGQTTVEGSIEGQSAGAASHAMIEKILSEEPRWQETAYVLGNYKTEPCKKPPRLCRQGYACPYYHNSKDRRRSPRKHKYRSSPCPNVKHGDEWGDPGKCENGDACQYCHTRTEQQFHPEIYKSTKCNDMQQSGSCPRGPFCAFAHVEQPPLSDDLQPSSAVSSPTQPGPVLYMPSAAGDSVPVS
| Sequence | bound/input enrichment |
| --- | --- |
| GACUUUGGAACUGGUCCUCGUAAUGCAGCCUACUAUAGCCCUCAUGGACAUAUAUCCGUAUCCGCUGGAUUUGGAAAUCUGAGGGGACAAAUGGAAGUGUGGGAUGUGAAAAACUACAAA | 0.0898 ratio |
| UUGCUGAUGACUUCUUGUGGCAUUUCACACUGUAGAUGGUCACUGCCUCUCAUGUCCAUGUCCGCUAAUGGUGUAAGAUGAUGUCUUGUCAGUAUUACUGUUUUGCUAAGCUGCUUCAUU | 0.119 ratio |
| GAAGGUUUCUUUACCAACGGUUUGACUCUUGGCGCGAAGAAAUGCUCAGUGAUCAGAGACCGUCUAUACGUCGAUGGUGACUGCACAAUGGACAUCCGGACAAAGAGUCAAGGUGGGGAG | 0.128 ratio |
| AAGGUGAUAACCAUGUUUGUACAGCGACAGGUGUUUGCUGAGAACAAGGAUGAGAUUGCUUCCGUCCUGUUUGGUACAGAUGGCACUGACAAUCCCCUUUCUGGUGGGGAUCAGUAUCAG | 0.0985 ratio |
| AUGAAAAGACUAAUUGGAUGAAUACUAUCUUUCUAAUGAAUUUGUGAUUAAAUAUAUAACCGUUGUUGAAAAUGAGUAACUUUGCGUUCUCCCCCUAGGUUGUUCUUAGAUGCCUGGCUU | 4.79 ratio |
| GAGAGGAUUAGGUUCCAUCCUUUACGUGUUUAAAAAAAAGCAUAAAAACAUUUUAAAAACACCGAAAAAUUCAGCAAACCAUUUUUAAAGUAGAAGAGGGUUUUAGGUAGAAAAACAUAU | 13.4 ratio |
| CGAAUGUUUGCUUACUUCCGACGCAACGCGGCCACGUGGAAGAAUGCAGUGCGUCAUAAUCUCCGUCUUCACAAGUGUUUUGUGCGAGUAGAAAACGUUAAAGGGGCAGUAUGGACAGUG | 0.223 ratio |
| UGCUUUUCUUUCUAAGCAGAGUAUGGUUGUCAUCUUUCUGGACAGAUGAAUUGAUAGGAGACCGAAGGUCGAAAGAUGGCUGUUAUACCAGCCUAAGUUCAGAACACCAGCAUAUCAAGG | 0.161 ratio |

A few entries again (set 4):
| Variant | relative binding score [%] |
| --- | --- |
| P50G | 4.22 |
| N22C | 95.1 |
| E125G | 104 |
| E128K | 113 |
